Results collected from several papers.
Parts stem from different laboratories: compare values within a part only. Substitutions count along the parent as printed.

Series 1 — target: CCNB1, cyclin fold, Cln2 fusion (human); method: yeast growth competition, sequencing; matrix: yeast; notes: strong parent motif; relative to: not given; direction: higher = stronger binding
Starting sequence: CDC42EP1 docking peptide (human); SLVVGKLSFDSSP
Substitution	normalised enrichment score
SLVVGKLSFASSP [D10A]	0.423
ALVVGKLSFDSSP [S1A]	1.77
SLAVGKLSFDSSP [V3A]	0.889
SAVVGKLSFDSSP [L2A]	1.99
SLVVGKLSFDSAP [S12A]	1.49
SLVVGALSFDSSP [K6A]	1.01
SLVAGKLSFDSSP [V4A]	0.816

Series 2 — method: RNA Bind-n-Seq; molecule type: RNA; matrix: in vitro; tested at: 200 nM; notes: whole 134-nt RNA, ends assumed; together with: 150 mM KCl; relative to: input library; direction: higher = stronger binding
Target: Ras GTPase-activating protein-binding protein 1, full length (G3BP1, Homo sapiens, UniProt Q13283)
UniProt Q13283, sequence (whole entry, looked up): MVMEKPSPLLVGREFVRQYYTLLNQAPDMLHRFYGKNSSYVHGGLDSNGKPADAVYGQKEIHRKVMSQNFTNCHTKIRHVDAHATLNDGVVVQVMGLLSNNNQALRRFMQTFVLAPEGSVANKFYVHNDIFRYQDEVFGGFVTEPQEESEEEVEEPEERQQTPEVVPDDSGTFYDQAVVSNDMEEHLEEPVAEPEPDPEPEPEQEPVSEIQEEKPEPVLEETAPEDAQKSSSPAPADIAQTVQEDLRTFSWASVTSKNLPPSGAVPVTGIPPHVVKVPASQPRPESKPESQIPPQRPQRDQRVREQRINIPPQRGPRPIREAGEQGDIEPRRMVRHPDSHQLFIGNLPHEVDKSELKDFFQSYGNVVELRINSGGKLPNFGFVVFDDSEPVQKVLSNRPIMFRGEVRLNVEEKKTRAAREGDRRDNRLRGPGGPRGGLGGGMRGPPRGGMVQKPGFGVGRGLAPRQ
Shared flanks, not repeated: GGGAGUUCUACAGUCCGACGAUC … UGGAAUUCUCGGGUGUCAAGG
Oligonucleotide	log2 enrichment
CCUCAAGUCCUGUGCUACACAUCGUAUGUACCGAAUCGGGAGGGGAGGGAGGAAAGUAUUAUGUUACGCCGUUCGGAUCUGCACUUCCAG	0.875
CAAGUCCUGUGCUACACAUCGUAUGUACCGAAUCGGGGAAGGGGAAGGGAAGGGGAAAGUAUUAUGUUACGCCGUUCGGAUCUGCACUUC	1.17
AGUCCUGUGCUACACAUCGUAUGUACCGAAUCAAAUUUUUAAAUUUUUAAACCCAAAAAAGUAUUAUGUUACGCCGUUCGGAUCUGCACU	-0.434
UCCUCAAGUCCUGUGCUACACAUCGUAUGUACCGAAUCGGGAGGGAGGAGGAAAGUAUUAUGUUACGCCGUUCGGAUCUGCACUUCCAGC	-0.344
AAGUCCUGUGCUACACAUCGUAUGUACCGAAUCGGGGUUUGGGGUUUGGGGUUUGGGAAAGUAUUAUGUUACGCCGUUCGGAUCUGCACU	0.193
CUCAAGUCCUGUGCUACACAUCGUAUGUACCGAAUCGGGGUUGGGGUUGGUUGGAAAGUAUUAUGUUACGCCGUUCGGAUCUGCACUUCC	0.466
UAACUUUAGAGGAGGAUCUGAUGGAUAUGGCAGUGGACGUGGAUUUGGGGAUGGCUAUAGUGGGUAUGGAGGAGGACCUGGAGGUGGCAA	0.472
UAACUUUAGAGGAGGAUCUGAUGGAUAUGGCAGUGGACGGGGAUUUGGGGAUGGCUAUAAUGGGUAUGGAGGAGGACCUGGAGGUGGCAA	0.562
CUGUGCUACACAUCGUAUGUACCGAAUCGGUUUUUUUGGGGUUUUUUUGGGGUUUUUUUGGGAAAGUAUUAUGUUACGCCGUUCGGAUCU	-0.86
UAACUUUAGAGGAGGAUCUGAUGGAUAUGGCAGUGGACGUGGAUUGGGGGAUGGCUAUAAUGGGUAUGGAGGAGGACCUGGAGGUGGCAA	0.447
UAACUUUAGAGGAGGAUCUGAUGGAUAUGGCAGUGGACGUGGAUUUGGGGAUGGCUAUAAUGGGUGUGGAGGAGGACCUGGAGGUGGCAA	0.53
GCAGGAAGUAAAAACAAAUGGAAAUGCAAAGGAUAGUGGCAGGGGUGGGGGUUGCUAAGGAAAGGGUGGGAUGGGAGUGGGUAAAGAGUU	1.09
AAGUCCUGUGCUACACAUCGUAUGUACCGAAUCGGGUUUGGGAGGGAAAAAAAGGGAAAGUAUUAUGUUACGCCGUUCGGAUCUGCACUU	-0.0958
GUCCUGUGCUACACAUCGUAUGUACCGAAUCGGGUUUUUGGGGUUUUUGGGUUUUUGGGAAAGUAUUAUGUUACGCCGUUCGGAUCUGCA	-0.23

Series 3 — target: CEBPB, bZIP domain (human); method: DHFR protein complementation; matrix: yeast; relative to: wild-type JUN-FOS pair; direction: higher = stronger binding
Notes: single substitutions, most at no-binding floor
Starting sequence: JUN, bZIP domain (human); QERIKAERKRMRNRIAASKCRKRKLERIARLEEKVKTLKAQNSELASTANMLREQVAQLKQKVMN; partner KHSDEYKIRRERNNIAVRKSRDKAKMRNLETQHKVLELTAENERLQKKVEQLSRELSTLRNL
Substitution	binding fitness [natural log]
L45H	-1.56
A57T	-1.24
L31D	-1.36
R30W	-1.35
S47F	-1.37
A29P	-1.42
T37P	-1.5
Q41M	-1.29
L38R	-1.52
R53G	-1.28
L52I	-1.44
Q58P	-1.51
A29E	-1.24
S47N	-1.32
N42S	-1.5
E33R	-1.39
K39V	-1.29
A46M	-1.24
S47C	-1.35
K39E	-1.22
S43W	-1.38
L45I	-1.37
E32R	-1.41
L45M	-1.54
T37K	-1.36

Series 4 — method: RNA Bind-n-Seq; molecule type: RNA; matrix: in vitro; tested at: 365 nM; relative to: no-protein control; direction: higher = stronger binding
Target: RNA binding protein fox-1 homolog 2, RRM domain, GST-SBP tag (RBFOX2, Homo sapiens, UniProt O43251-10, residues 100-194)
Notes: natural RNA segment, single round, ends assumed
Shared flanks, not repeated: GGGAGUUCUACAGUCCGACGAUC … UGGAAUUCUCGGGUGCCAA
Construct (chain): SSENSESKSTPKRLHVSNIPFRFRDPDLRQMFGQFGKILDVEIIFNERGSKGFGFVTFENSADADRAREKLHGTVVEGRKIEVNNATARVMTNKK
Oligonucleotide	RBNS enrichment (R)
UGCUUUGUUGCCCAGGCUGAAGUGCAGUGGCAUAAUCUCAGCUCACUGAAACCUCUGCCUCCCGGGUUCAAACGAUUCUCCUGCCUCAGCCUCCCAAGUAGCUGGGAUUA	0.309
GUCCUGCCCGACUUCCCAGUUAAAUGCUGCUUGUGCCCAGUGCUGCUUUCCCAAGCUCACCCCACCUCCAUGACUAGAAGCUUCUGCAAAUCUGCUUGGUAAAUGUCUCC	0.753
UUGAAGGACUAAAUUAUUAAUUAUUGUUCAGUAAUGAUCACCUAAUUUUUCCCAUAAGAAUUAUAAGCUGCAUUUCUAAGGCAUAGCUCCAAUUAUGAGAUAAAAUUUAU	0.505
GAGGUGUCGUUCUUUUGUGACGUCAGCGUAUGUGUACCUAUUCCUUUGUUUGCGGUGUACUGAGGGACCGAUGUAUCCACUGGAAUAGUUGGUACUCUCGGACAGGUUUU	0.789
CUAUAUUCAUCCAGGAUACUUGGAAGUGCUAAAAUAGGAAGGGAUUCGGCUUUCAACUUUGCUACCAUCUUCCCUGAAGCAGGAAAAUGAACAUGGACUUAAAUGUUCUU	0.301
GCAGACCAAAAGUCACAACAGUGGCAGGCAGGCUGCAUGCUUUUUGUAUCGCUCACGAUGCACUGUGGUGUGCUCGGGUAUCUUUCCUCACUGGAGAGAGCAAGCACAGG	0.577
CUACCAAUGACAGGGUGCCCUGGCUGGAGCUGUCAUCACACACACCCCUCAGCUCGGAGGCUGUGGGCUCCUCAAAGCUGGAGAAAGAGGCCAAGAUUUUUCUGCACACG	0.51
CCCUUCCCAGCACAUUGAAUGGGUAAGCAGACAGGCCAUGAUUUAGUUGGCCAGCACUAACUCCACCUCUGUUCUCCUUGAACAGCUUCCCCUCCAGCCCACUGCUUUAG	0.96
AAAUGCACUUAAAUGAAAACAGUUAUUACAAAAGUUAAGAUUUAAAAAAAAGAAAAAGCAAGAGUUUUUAUUAUGAUGUAAUACCGGUAGAAUAUUGAAUAUUUAAAAGG	0.914
CAUUGUUUUCCUACUUUUUUGUUGUUGGAUUAUGUAACUUUUCCUAAGUUCAGAAGUCUUAAGUGUGCAAGCGUUUAUGUGACCGUGCCAUUCCAGAGUGCAUCAGAACU	0.553
UUUUCUUACUGUGCUUAGGACUGCACGCAAGUGAGCAGACACCACCGACUUCCUUUCUGCGUCACCAGUGUCGUCAGCAGAGAGAGGACAGCACAGGCUCAAGGUUGGUA	0.474
GGCCUGCUAACAGCCCCCCGAUCCGUCAGGGGGAAUAACUCUGGGAGUCACUGGAUAUCAGUGGAGACUACUGUGGUCUUCCCACGCAUGGGCCGUGGCUUUCAGUUCUC	0.737

Series 5 — method: protein binding microarray; molecule type: double-stranded DNA, one strand shown; matrix: in vitro; tested at: not given; relative to: not given; direction: higher = stronger binding
Target: Histone acetyltransferase KAT6A, winged helix 1, GST fusion (KAT6A, Homo sapiens, UniProt Q92794, residues 1-85)
Notes: 8-mer, flanks averaged, mean of 2 arrays, mostly near background
Construct (chain): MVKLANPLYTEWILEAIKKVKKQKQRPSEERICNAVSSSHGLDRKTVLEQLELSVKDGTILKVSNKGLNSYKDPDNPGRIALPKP
Oligonucleotide	E-score
CTGGACGA	-0.16
ATCCTGAA	-0.126
CTTACAAG	-0.0916
AGCCCCCG	0.317
GCAGGCAA	-0.0464
CACGCGAC	0.151
ATGGTAGA	-0.141
AGCCTATC	-0.139
GTGCCGGA	0.19
ATGGGGAC	-0.148
AACGTCGG	0.0984
CAAAGTTG	-0.179
GTGGGCGA	-0.212
AGCCGTGC	0.362
CTTATCGA	0.00697
CACCAGGC	-0.164
AAGGAATT	-0.0929
CGAGGCTC	0.139
TATACCCA	-0.14
CCGTTAGC	0.184
GGAATGAA	0.0489
CGTACTCA	0.0522
CATAACCA	-0.132
ACTTTGTC	-0.136

Series 6 — method: DHFR PCA, deep sequencing; matrix: yeast; together with: (+)-ABA 710 µM; relative to: wild-type fitted maximum; direction: higher = stronger binding
Target: ABI1, truncated, D143A, DHFR fusion (Arabidopsis thaliana)
Notes: methotrexate growth selection, single substitutions
Starting sequence: PYL1, truncated, DHFR fusion (Arabidopsis thaliana); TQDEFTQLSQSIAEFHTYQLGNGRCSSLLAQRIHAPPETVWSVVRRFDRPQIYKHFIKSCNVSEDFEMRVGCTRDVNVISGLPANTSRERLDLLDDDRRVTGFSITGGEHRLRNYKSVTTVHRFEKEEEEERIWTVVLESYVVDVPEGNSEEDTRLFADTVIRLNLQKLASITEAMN
Substitution	relative binding score [%]
E67T	96.4
V78S	75.6
D3M	96.4
T106E	103
F103W	83.4
F103S	5.12
T173W	85.9
F15H	101
E131D	107
S80I	14.3
G102P	4.98

Series 7 — method: protein-binding microarray; molecule type: double-stranded DNA, one strand shown; matrix: in vitro; tested at: not given; direction: higher = stronger binding
Target: Transcription factor Sp1 (SP1, Homo sapiens, UniProt P08047, residues 1-785, full length assumed)
UniProt P08047, sequence (whole entry, looked up): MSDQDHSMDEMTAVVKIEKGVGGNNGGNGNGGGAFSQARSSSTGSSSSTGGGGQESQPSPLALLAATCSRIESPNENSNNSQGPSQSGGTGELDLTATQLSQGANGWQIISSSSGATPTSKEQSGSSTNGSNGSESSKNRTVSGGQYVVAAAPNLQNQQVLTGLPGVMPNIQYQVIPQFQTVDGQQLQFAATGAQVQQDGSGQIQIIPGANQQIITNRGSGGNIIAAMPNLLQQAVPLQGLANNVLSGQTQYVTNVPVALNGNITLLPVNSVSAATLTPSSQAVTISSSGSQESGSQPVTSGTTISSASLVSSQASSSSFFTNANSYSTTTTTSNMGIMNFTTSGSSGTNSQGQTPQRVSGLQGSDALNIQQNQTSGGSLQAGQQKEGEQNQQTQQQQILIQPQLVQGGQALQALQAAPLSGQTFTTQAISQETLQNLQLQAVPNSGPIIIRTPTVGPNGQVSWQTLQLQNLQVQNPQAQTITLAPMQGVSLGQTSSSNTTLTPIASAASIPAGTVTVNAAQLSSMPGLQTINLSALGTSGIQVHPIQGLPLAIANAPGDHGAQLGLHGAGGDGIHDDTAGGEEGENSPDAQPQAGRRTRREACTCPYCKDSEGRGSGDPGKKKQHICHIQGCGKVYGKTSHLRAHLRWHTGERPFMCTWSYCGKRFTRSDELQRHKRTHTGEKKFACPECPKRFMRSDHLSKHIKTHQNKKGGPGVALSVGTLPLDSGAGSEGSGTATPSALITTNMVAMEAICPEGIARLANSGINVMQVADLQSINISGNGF
Notes: k-mer, scored over probes, only values ≥0.25
Oligonucleotide	E-score
AATAGGGG	0.346
CCTTGCTA	0.259
AGATACCC	0.304
ATATATAC	0.29
CACCCCAG	0.259
TCGCCCCA	0.265
GAACTGTA	0.255
AGGGGGCG	0.485
ACCCCACA	0.396
CCACACAC	0.281
GGGGAAGA	0.268
ATTCATTC	0.263
ATAGGGGC	0.324
CGCCCCGA	0.284
